Published values gathered from unrelated publications.
Compare with care: the assays were run in different laboratories.
PFF0160c: Dihydroorotate dehydrogenase (quinone), mitochondrial (PFF0160c, Plasmodium falciparum, UniProt Q08210)
UniProt Q08210, sequence (whole entry, looked up): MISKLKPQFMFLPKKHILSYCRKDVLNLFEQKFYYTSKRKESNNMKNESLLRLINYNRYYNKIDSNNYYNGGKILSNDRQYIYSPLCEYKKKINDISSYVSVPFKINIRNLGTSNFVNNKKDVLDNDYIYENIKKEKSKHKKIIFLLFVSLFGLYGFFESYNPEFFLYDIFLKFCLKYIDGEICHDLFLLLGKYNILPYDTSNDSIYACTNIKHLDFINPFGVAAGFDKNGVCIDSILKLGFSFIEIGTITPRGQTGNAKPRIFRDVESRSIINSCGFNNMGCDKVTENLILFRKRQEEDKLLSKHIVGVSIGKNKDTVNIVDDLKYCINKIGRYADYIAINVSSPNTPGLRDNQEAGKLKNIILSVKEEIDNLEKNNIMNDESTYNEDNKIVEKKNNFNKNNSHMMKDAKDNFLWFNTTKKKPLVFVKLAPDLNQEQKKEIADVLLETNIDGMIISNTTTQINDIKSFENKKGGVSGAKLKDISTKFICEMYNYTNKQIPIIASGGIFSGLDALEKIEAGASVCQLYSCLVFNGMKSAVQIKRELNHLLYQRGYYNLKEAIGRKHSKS
UniProt O75582, sequence (whole entry, looked up): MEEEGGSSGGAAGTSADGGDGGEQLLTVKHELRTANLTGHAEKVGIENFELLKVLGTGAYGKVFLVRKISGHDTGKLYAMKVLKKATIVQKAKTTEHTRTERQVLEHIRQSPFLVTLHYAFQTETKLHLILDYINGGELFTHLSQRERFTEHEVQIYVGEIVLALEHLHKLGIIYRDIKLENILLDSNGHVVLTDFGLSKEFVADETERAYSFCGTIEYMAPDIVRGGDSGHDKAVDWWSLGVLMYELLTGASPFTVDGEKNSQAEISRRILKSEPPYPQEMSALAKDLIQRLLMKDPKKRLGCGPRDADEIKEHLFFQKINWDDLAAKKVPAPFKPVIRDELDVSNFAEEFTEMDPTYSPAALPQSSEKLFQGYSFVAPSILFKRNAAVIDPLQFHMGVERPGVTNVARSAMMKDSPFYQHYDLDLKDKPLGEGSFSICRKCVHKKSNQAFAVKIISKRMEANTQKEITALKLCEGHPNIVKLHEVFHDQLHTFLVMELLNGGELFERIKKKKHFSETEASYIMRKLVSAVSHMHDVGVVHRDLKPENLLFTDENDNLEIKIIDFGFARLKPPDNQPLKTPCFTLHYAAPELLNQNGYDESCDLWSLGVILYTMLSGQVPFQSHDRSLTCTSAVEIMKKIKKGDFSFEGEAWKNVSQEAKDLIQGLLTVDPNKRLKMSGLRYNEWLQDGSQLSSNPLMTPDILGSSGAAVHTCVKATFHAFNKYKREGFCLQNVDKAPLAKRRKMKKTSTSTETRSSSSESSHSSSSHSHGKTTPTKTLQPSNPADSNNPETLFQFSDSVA
UniProt Q8TD08, sequence (whole entry, looked up): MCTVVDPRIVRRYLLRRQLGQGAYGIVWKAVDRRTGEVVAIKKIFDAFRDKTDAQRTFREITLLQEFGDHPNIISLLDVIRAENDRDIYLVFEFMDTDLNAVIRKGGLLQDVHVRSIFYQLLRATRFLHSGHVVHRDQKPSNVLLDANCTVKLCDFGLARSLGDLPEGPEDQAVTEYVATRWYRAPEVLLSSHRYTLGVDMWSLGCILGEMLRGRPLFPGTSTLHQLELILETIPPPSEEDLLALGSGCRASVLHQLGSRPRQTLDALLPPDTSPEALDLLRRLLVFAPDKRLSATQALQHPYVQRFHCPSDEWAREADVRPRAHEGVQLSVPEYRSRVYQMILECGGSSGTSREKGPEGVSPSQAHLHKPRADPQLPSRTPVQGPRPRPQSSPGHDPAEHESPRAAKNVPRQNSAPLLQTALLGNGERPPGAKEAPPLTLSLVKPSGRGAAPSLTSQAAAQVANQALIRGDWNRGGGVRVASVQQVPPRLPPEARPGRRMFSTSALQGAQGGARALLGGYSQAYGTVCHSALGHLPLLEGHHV
UniProt Q12809, sequence (whole entry, looked up): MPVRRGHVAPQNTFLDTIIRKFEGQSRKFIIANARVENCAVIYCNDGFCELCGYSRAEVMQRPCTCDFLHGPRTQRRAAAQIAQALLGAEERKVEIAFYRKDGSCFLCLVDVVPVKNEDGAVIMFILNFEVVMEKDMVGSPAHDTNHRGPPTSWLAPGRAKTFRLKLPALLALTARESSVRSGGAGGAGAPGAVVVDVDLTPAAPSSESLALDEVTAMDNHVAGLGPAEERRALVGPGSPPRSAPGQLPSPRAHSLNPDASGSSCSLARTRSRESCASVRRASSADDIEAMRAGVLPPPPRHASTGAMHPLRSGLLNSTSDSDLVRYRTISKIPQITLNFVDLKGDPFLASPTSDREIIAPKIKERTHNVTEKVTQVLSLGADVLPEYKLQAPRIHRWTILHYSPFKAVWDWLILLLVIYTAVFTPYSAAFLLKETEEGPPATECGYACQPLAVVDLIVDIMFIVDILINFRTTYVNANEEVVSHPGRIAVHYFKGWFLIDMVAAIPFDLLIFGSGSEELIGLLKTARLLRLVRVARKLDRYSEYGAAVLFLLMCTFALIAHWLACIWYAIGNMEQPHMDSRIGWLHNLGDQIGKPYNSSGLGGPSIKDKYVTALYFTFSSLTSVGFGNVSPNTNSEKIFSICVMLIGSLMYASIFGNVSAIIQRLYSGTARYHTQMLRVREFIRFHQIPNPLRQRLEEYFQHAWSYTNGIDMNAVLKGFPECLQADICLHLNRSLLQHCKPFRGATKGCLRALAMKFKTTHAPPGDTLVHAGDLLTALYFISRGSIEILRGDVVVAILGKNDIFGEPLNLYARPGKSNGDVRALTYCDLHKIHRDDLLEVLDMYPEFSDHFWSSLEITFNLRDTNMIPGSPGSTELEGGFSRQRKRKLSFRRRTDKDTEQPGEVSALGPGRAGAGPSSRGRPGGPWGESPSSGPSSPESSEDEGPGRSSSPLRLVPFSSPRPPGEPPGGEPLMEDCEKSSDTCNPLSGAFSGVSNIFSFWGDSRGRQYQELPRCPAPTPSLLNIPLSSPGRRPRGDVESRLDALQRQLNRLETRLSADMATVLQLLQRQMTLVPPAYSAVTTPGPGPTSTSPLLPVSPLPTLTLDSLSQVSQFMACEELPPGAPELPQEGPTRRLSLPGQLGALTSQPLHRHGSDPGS

SMILES	target or system	test	test system	conditions	endpoint	value
CC(C)C[C@H](NC(=O)[C@H](Cc1ccccc1)NC(=O)[C@H](Cc1ccccc1)NC(=O)Cc1ccc(-c2ccccc2)cc1)C(=O)N[C@@H](CCCCN)C(=O)N[C@@H](CCCNC(=N)N)C(=O)N[C@H](C(=O)N[C@@H](Cc1c[nH]c2ccccc12)C(=O)N[C@@H](CCCCN)C(=O)N[C@@H](CCCNC(=N)N)C(=O)O)C(C)C	–	metabolic stability, mass spectrometry	mouse, liver microsomes	15 min	compound remaining	29.8%
Cn1c(=O)ccc2ccc(F)c(CCNC[C@H]3CN(c4ncc5c(n4)NC(=O)CO5)C(=O)O3)c21	KCNH2 (Homo sapiens, UniProt Q12809)	ion current, inhibitor, patch clamp	–	2 min, pH 7.4	IC50	214 µM
Cc1nn(C)cc1-c1nc2c(N3CCN(Cc4ccc(Cl)cc4)CC3)c(Cl)cnc2[nH]1	Ribosomal protein S6 kinase alpha-5, N-terminal kinase domain (RPS6KA5, Homo sapiens, UniProt O75582)	binding, competition with immobilised ligand	–	1 µM	remaining binding	100%
Cc1cccc(C(=O)N2CCN(Cc3cccc(NC(=O)c4cccs4)c3)CC2)c1	PFF0160c	enzyme activity, inhibitor, absorbance	–	–	IC50	2.43 µM
COc1ccc([C@@]23Oc4cc(OC)cc(OC)c4[C@@]24N=C(C2CC2)N[C@@]4(O)[C@H](C(=O)N(C)OC)[C@H]3c2ccccc2)cc1	–	metabolic stability	male Sprague-Dawley rat, liver microsomes	1 µM, pH 7.4	microsomal CLint	35.6 µL/min/mg
[2H]c1c([2H])c([C@]2([2H])CCCN2C(=O)C(C)(C)Oc2ccc3cn[nH]c3c2)c([2H])c([2H])c1C([2H])([2H])[2H]	MAPK15 (Homo sapiens, UniProt Q8TD08)	binding, competition with immobilised ligand	–	1 µM	remaining binding	76%
Cc1[nH]c2ccc(-c3ccccc3)cc2c(=O)c1Br	PFF0160c	enzyme activity, inhibitor, absorbance	–	–	IC50	0.702 µM
Nc1c2c(nc3c1C(c1ccc(Cl)c(Cl)c1)c1ccc(OCC(=O)c4ccccc4)cc1O3)CCCC2 (stereo not shown)	SH-SY5Y	cell growth or viability, MTT	–	100 µM	viability	36.5%
N=C(N)NCCC[C@@H](NC(=O)[C@@H](N)Cc1ccccc1)C(=O)N[C@@H](Cc1ccccc1)C(=O)N[C@@H](CCCCN)C(N)=O	–	–	human, plasma	subcutaneous, 25 mg, multiple doses, once daily, patients	Cmax	1140 ng/mL
C[N+]1=C2C=C(N/C=C/c3ccc(O)cc3)C(=O)c3[nH]cc(c32)CC1	HEK293	cell growth or viability, MTT	–	72 h	CC50	5 µM
[18FH]	–	–	mouse, muscle	intravenous, 1 h	tracer uptake	0.32 %ID/g
Nc1ncc(-c2nc(N3CCOCC3)nc(N3CCOCC3)n2)c(C(F)F)n1	Tyrosine-protein kinase ABL1, phosphorylated (ABL1, Homo sapiens, UniProt P00519, Y253F)	binding, competition with immobilised ligand	–	10 µM	remaining binding	63%
Cc1ccc(S(=O)(=O)Oc2ccc3c(c2)Oc2nc4c(c(N)c2C3c2ccc(Cl)c(Cl)c2)CCCC4)cc1 (stereo not shown)	SH-SY5Y	cell growth or viability, MTT	–	6.3 µM	viability	71.8%
C[C@]12CC[C@H]3[C@@H](CC=C4CC(O)CC[C@@]43CO)[C@@H]1CCC2O (stereo partly shown)	–	–	rat, plasma	intraperitoneal, 10 mg/kg	Cmax	2810 ng/mL
Nc1c2c(nc3c1C(c1cccc([N+](=O)[O-])c1)c1ccc(OCC(=O)c4ccc(Cl)cc4)cc1O3)CCCC2 (stereo not shown)	SH-SY5Y	cell growth or viability, MTT	–	25 µM	viability	52.8%
CCOC(=O)c1c(NC(=O)CNC(C)C)sc2c1CCCCC2	–	–	male mouse, brain	intraperitoneal, 100 mg/kg, 24 h	concentration	3.32 ng/g

Some of these lines once more:
SMILES	target or system	test	test system	conditions	endpoint	value
CCOC(=O)c1c(NC(=O)CNC(C)C)sc2c1CCCCC2	–	–	male mouse, brain	intraperitoneal, 100 mg/kg, 24 h	concentration	3.32 ng/g
